Published values collected from several papers.
Parts stem from different laboratories: compare values within a part only.

Block 1
Target: Sal-like protein 4, full length isoform B (SALL4, Homo sapiens, UniProt Q9UJQ4-2, residues 1-616)
Method: universal PBM
Form: double-stranded DNA, one strand shown
Medium: in vitro
Tested at: not given
Notes: 8-mer, flanks averaged, mean of replicates
Direction: higher = stronger binding
`AGTAGGGA` has an E-score of -0.0198.
For `GCTTGGAA`, the E-score was -0.0953.
`GAAGATGA` has an E-score of 0.129.
The E-score of `AAAGCATC` is reported as 0.0165.
`GCCGATCC` gave an E-score of -0.19.
`CGCGTCCC` gave an E-score of -0.4.
`GAAATCCC` gave an E-score of -0.0993.
The E-score of `CAATAATC` is reported as 0.291.

Block 2
Target: Replicase polyprotein 1ab, 3C-like proteinase (rep, Middle East respiratory syndrome-related coronavirus, UniProt K9N7C7)
Observed: enzyme activity
Mode: inhibitor
Tested at: 10 µM
CC(=O)O/N=C1/C(=O)N(Cc2cc(Cl)ccc2Cl)c2ccc(Cl)cc21 has an inhibition of 46%.
COCCCOc1ccnc(C[S+]([O-])c2nc3ccccc3[nH]2)c1C (stereo not drawn) gave an inhibition of 46%.
The inhibition of N#CSc1cc(SC#N)c(N)nc1N is reported as 100%.
The inhibition of C[C@@H](CN1CC(=O)NC(=O)C1)N1CC(=O)NC(=O)C1 is reported as 14%.
For CCCCCCCCCCCCCCCCCC[S+](CCC)c1ccccc1C(=O)OCC (stereo not drawn), the inhibition was 21%.

Block 3
Cell line: HEK-293T/ACE2
Tested at: concentration not given
Time: 16 (unit not given)
Relative to: vehicle
CCN(CC)CCCC(C)Nc1ccnc2cc(Cl)ccc12 (stereo not drawn) has a viability of 108%.
For C/C(O)=C(\C#N)C(=O)Nc1ccc(C(F)(F)F)cc1, the viability was 96.5%.
For OC[C@@H](O)[C@@H](O)[C@H](O)[C@H](O)CO, the viability was 101%.
O=c1cc[nH]c(=O)[nH]1 has a viability of 81.2%.
For CN1CCC[C@@H]1Cc1c[nH]c2ccc(CCS(=O)(=O)c3ccccc3)cc12, the viability was 103%.

Block 4
Target: Interferon regulatory factor 5, full length, phosphomimetic (IRF5, Homo sapiens, UniProt Q13568-2, residues 1-514, K96S/S451D/S453D/S456D/S462D)
Method: protein-binding microarray
Form: double-stranded DNA, one strand shown
Medium: in vitro
Tested at: 250 nM
Notes: 60-bp whole probe
Together with: salmon DNA 0.4 mg/ml
Relative to: random background probes
Direction: higher = stronger binding
Shared flanks, not repeated: GCCTAGCAC … GTCTTGATTCGCTTGACGCTGCTG
For `TTAGATCTCAGTATCGATTCGTGCTAG`, the log fluorescence was 5.89 z-score.
For `TCACATTTTTCCCTCTGACTGTGCTAG`, the log fluorescence was 1.03 z-score.
For `GACGGACTGGCGTTTCGGGACGTGCTA`, the log fluorescence was 0.504 z-score.
`TGAGGACTGCTTATCCTTTAGTGCTAG` has a log fluorescence of -0.294 z-score.
`GACGGTTTCCTTTTCCTGATGTGCTAG` has a log fluorescence of 1.2 z-score.
`GACGATTTCAGACCGGAGACGTGCTAG` gave a log fluorescence of 0.0638 z-score.
`GACGAACTGTGGACTGGAGACGTGCTA` has a log fluorescence of -0.501 z-score.
With `GACGAATTCGGGTTTCGAGACGTGCTA` the log fluorescence was 2.14 z-score.

Block 5
Target: Replicase polyprotein 1ab, nsp13 helicase (rep, Severe acute respiratory syndrome coronavirus 2, UniProt P0DTD1)
Mode: inhibitor
Tested at: 20 µM
With CC(C)(C)OC(=O)N[C@H]1CCCCC/C=C\[C@@H]2C[C@@]2(C(=O)NS(=O)(=O)C2CC2)NC(=O)[C@@H]2C[C@@H](OC(=O)N3Cc4cccc(F)c4C3)CN2C1=O the inhibition was 5.54%.
For COc1cn(-c2ccc(-n3cccn3)cc2F)nc(-c2ccnn2-c2ccccc2)c1=O, the inhibition was 6.65%.
The inhibition of Cc1ccc(NC(=O)c2cccc(C(C)(C)C#N)c2)cc1Nc1ccc2ncn(C)c(=O)c2c1 is reported as 4.32%.
CNC[C@H](O)c1ccc(O)c(O)c1 has an inhibition of -0.93%.
The inhibition of CCCCCCCCCCC(C)(C)C(=O)Nc1c(OC)cc(OC)cc1OC is reported as 12.4%.
With O=C(O)CC(=O)C(=O)O the inhibition was -2.85%.
The inhibition of CCOC(=O)c1ccc(N)cc1 is reported as -1.1%.
The inhibition of CC[C@H](NC(=O)c1c(C)c(-c2ccccc2)nc2ccccc12)c1ccccc1 is reported as 4.44%.
Nc1cc(Cl)c(N=C2NCCN2)c(Cl)c1 has an inhibition of 5.97%.
For NC(=O)N1CCC(CC(=O)N2CCC([C@H]3c4ncc(Br)cc4CCc4cc(Cl)cc(Br)c43)CC2)CC1, the inhibition was 4.76%.
The inhibition of CC(=O)Nc1cccc2c1c(Sc1ccc(Cl)cc1)c(C)n2CC(=O)O is reported as 1.18%.
For CSc1ccc(C(=O)/C=C/c2cc(C)c(OC(C)(C)C(=O)O)c(C)c2)cc1, the inhibition was 1.31%.
For c1ccc(CNCc2ccc(CN3CCCNCCNCCCNCC3)cc2)nc1, the inhibition was 2.05%.
For CNCC(=O)c1ccc(O)c(O)c1, the inhibition was 8.93%.
The inhibition of O=C(O)C1=C[C@@H](O)[C@@H](O)[C@H](O)C1 is reported as 3.2%.
CN(C)CCOc1ccc(/C(=C(/CCCl)c2ccccc2)c2ccccc2)cc1 has an inhibition of 10.8%.
C/C(=C\c1csc(C)n1)[C@@H]1C[C@@H]2O[C@]2(C)CCC[C@H](C)[C@H](O)[C@@H](C)C(=O)C(C)(C)[C@@H](O)CC(=O)O1 gave an inhibition of 7.54%.
C=CC(=O)Nc1cccc(Oc2nc(Nc3ccc(N4CCN(C)CC4)cc3OC)ncc2Cl)c1 gave an inhibition of 2.79%.
CCCC(O)C(CC)CO (stereo not drawn) has an inhibition of -0.52%.
CC(C)NC[C@@H](C(=O)N1CCN(c2ncnc3c2[C@H](C)C[C@H]3O)CC1)c1ccc(Cl)cc1 has an inhibition of 3.98%.
The inhibition of Fc1ccc(C(c2ccccc2)(c2ccccc2F)n2ccnc2)cc1 (stereo not drawn) is reported as 0.93%.
With CC1(C)O[C@@H]2C[C@H]3[C@@H]4CCC5=CC(=O)CC[C@]5(C)[C@@]4(F)[C@@H](O)C[C@]3(C)[C@]2(C(=O)CCl)O1 the inhibition was 3.09%.
O=c1[nH]cnc2c([C@@H]3N[C@H](CO)[C@@H](O)[C@H]3O)c[nH]c12 gave an inhibition of 7.28%.
The inhibition of CCCN(CCC)C(=O)C(CCC(=O)O)NC(=O)c1ccccc1 (stereo not drawn) is reported as -4.55%.
For Cc1cc(-n2c(=O)[nH]c(=O)n(C)c2=O)ccc1Oc1ccc(SC(F)(F)F)cc1, the inhibition was 3.4%.

Some of these lines once more (block 5):
The inhibition of CC(=O)Nc1cccc2c1c(Sc1ccc(Cl)cc1)c(C)n2CC(=O)O is reported as 1.18%.
With CC1(C)O[C@@H]2C[C@H]3[C@@H]4CCC5=CC(=O)CC[C@]5(C)[C@@]4(F)[C@@H](O)C[C@]3(C)[C@]2(C(=O)CCl)O1 the inhibition was 3.09%.
The inhibition of CCCN(CCC)C(=O)C(CCC(=O)O)NC(=O)c1ccccc1 (stereo not drawn) is reported as -4.55%.
The inhibition of CCOC(=O)c1ccc(N)cc1 is reported as -1.1%.
